Assay results gathered from unrelated publications.
Lines come from different studies, so protocols differ. ± gives the spread as reported.

C[C@@H]1CN(Cc2ncccn2)C[C@H]1c1nc2c(cnn2C2CCOCC2)c(=O)[nH]1 — volume of distribution (mouse, plasma; intravenous, 0.3 mg/kg): 1.6 L/kg
CCO — pharmacodynamic-related TEAEs (human; concentration not given): 50%
COc1ccc([C@@H](O)c2cc(-c3ncnc4cc(N5CCOCC5)ccc34)c(F)cc2Cl)nn1 — anaemia TEAE incidence (locally advanced rectal cancer patients; 150 mg, added: capecitabine and radiotherapy): 17%
COc1cc(C(=O)O)ccc1OS(=O)(=O)O — CSF concentration (human CSF; concentration not given, mean): not detected
CCn1cc(C(=O)N2CCOCC2)c(=O)c2cc(NC3Cc4ccccc4C3)cnc21 — Cmax (human male, fed, plasma; oral, 900 mg twice daily, day 7, tablet, arithmetic mean): 6690 ng/mL
CC(C)C[C@H](NC(=O)CNC(=O)c1cc(Cl)ccc1Cl)B(O)O — adverse events all grades (newly diagnosed multiple myeloma patients; oral, dose not given, Fatigue, maintenance): 11%
CC/C(=C(\c1ccccc1)c1ccc(OCCN(C)C)cc1)c1ccccc1 — heart rate (male Hartley guinea pigs, anaesthetized; intravenous, 10 mg/kg group, baseline before infusion): 217 ± 0.9 beats/min
Cc1cc(NC2CCN(C(=O)OC3CCN(C(=O)/C=C/CN(C)C)C3)CC2)n2ncc(C(C)C)c2n1 (stereo not drawn) — patients with adverse event (Phase I dose escalation CTCAE v4.0, refers to: peripheral oedema; patients with advanced solid tumours; dose not given, TIW dosing grade 3 or higher): 0%
Cc1noc(C)c1Cn1cc(N2C(=O)CN(Cc3cccc(O)c3)C2=O)cn1 — remaining parent (pooled human liver microsomes; 10 µM, 30 min, pH 7.4): 116 % peak area
O=c1c2ccccc2oc2ccccc12 — solubility (tricaprin-tricaprylin mixture; 30 °C, tricaprin fraction 0.56): 0.0455 mole fraction
COc1cc(C2=CCCc3c2ccc(OC)c3OCc2cnc([N+](=O)[O-])n2C)cc(OC)c1OC — parent drug release (non-enzymatic, no POR; phosphate buffer; 24 h, pH 7.4): 0%
[18F]c1ccc(-c2ccc3c(c2)[nH]c2ccncc23)cn1 — SUV (ex vivo biodistribution; B6SJL mouse, normal, thalamus; intravenous, 30 min): 0.453 ± 0.155
CO[C@H]1C[C@@H]2CC[C@@H](C)[C@@](O)(O2)C(=O)C(=O)N2CCCC[C@H]2C(=O)O[C@H]([C@H](C)C[C@@H]2CC[C@@H](O)[C@H](OC)C2)CC(=O)[C@H](C)/C=C(\C)[C@@H](O)[C@@H](OC)C(=O)[C@H](C)C[C@H](C)/C=C/C=C/C=C/1C — heart rate (healthy adult horses; oral, 0.06 mg/kg, 10 h): 33.5 ± 2.8 beats/min
CCN1/C(=C/C(C)=O)Sc2ccc(F)cc21 — heart rate change (cynomolgus monkey; oral, 10 mg/kg, 0.5 h post-dose; baseline: pre-dose): 117 ± 13.2%
Cc1cc(Nc2ncnc3ccc(NC4=NC(C)(CO)CO4)cc23)ccc1Oc1ccn2ncnc2c1 (stereo not drawn) — AUC(0-t) (geometric mean) (human, plasma; oral, 300 mg tucatinib single dose, day 1, tucatinib alone): 414 ng·h/mL
NC(=O)c1cnc2[nH]ccc2c1N[C@@H]1[C@@H]2CC3C[C@H]1C[C@@](O)(C3)C2 — peripheral volume (healthy human volunteers, plasma; oral, dose not given, population PK model estimate): 124 L
O=C(COc1ccc(Cl)cc1)NC12CC(c3nnc([C@H]4C[C@@H](OC(F)(F)F)C4)o3)(C1)C2 — participants with procedural pain (human both sexes; oral, 260 mg once daily, 14 days): 28.6%
CO[C@H]1/C=C/O[C@@]2(C)Oc3c(C)c(O)c4c(O)c(c(/C=N/N5CCN(C)CC5)c(O)c4c3C2=O)NC(=O)/C(C)=C\C=C\[C@H](C)[C@H](O)[C@@H](C)[C@@H](O)[C@@H](C)[C@H](OC(C)=O)[C@@H]1C — incidence of AST increased (healthy human volunteers; oral, 600 mg, itraconazole cohort, added: gepotidacin 1500 mg): 0%
CN(CCC(=O)O)C(=O)c1ccc2c(c1)CC[C@@H]1[C@@H]2CC[C@]2(C)C(c3cncc(F)c3)=CC[C@@H]12 — indirect bilirubin change (premenopausal women, endometriosis pain, serum; 60 mg twice daily, visit 6, mean; baseline: baseline): 0.47 mg/dL
O=C1c2ccncc2C(=O)c2c1[nH]c1ccccc21 — tissue concentration (Sprague-Dawley rat, male, right ventricle; oral, 1 mg/kg, 24 h): 0.047 ± 0.02 nmol/mg
CCCCCCCCNCc1ccc(CNC(=O)c2csc3nc[nH]c(=O)c23)cc1 — EC50 (haemolysis; human red blood cells; 1 h, 37 °C): > 100 µM
CC(=O)Oc1ccccc1C(=O)O — heart rate (male Hartley guinea pigs, anaesthetized; intravenous, 1 mg/kg group, baseline before infusion): 247 ± 0.1 beats/min
Cc1ccc(C(=O)N(CCCN)C(c2nc3snc(C)c3c(=O)n2Cc2ccccc2)C(C)C)cc1 (stereo not drawn) — grade ≥3 hyperbilirubinemia patients (human patients; intravenous, 16 mg/day): 14%
C[C@@H]1CN(CC(=O)N2CC(C)(C)c3ncc(Cc4ccc(F)cc4)cc32)[C@@H](CN2CCOC[C@H]2C)CN1 — oral bioavailability (male cynomolgus monkey; oral, 30 mg/kg): 4 ± 0.54%
O=C(O)CCC(=O)O.[2H]C([2H])([2H])Oc1cc(C)c2[nH]ccc2c1CN1CC[C@@H](C2CC2)C[C@H]1c1ccc(C(=O)O)cc1 — subjects with elevated bilirubin TEAE (multiple ascending dose; healthy Chinese subjects; 200 mg once daily): 0%
CCN1CCN(Cc2ccc(Nc3ncc(F)c(-c4cc(F)c5nc6n(c5c4)[C@H](C)CCC6)n3)nc2)CC1 — AUC(0-tau) (human, plasma; 300 mg multiple dosing, mean): 7390 ng·h/mL
COc1ccc2c(c1)CN(C(=O)CCN1CCC(Cc3ccccc3)CC1)CC[S@@+]2[O-] — diastolic blood pressure (telemetry; conscious dog; intravenous, 4 mg/kg, 1 h): 76 ± 6 mmHg
C=CC(=O)NC1CCN(c2ncc3ncnc(Nc4ccc(Oc5ccc6c(c5)ncn6C)c(C)c4)c3n2)CC1 — participants with fatigue (human, male; oral, 240 mg, treatment-emergent adverse event): 6.3%
O=c1oc2cc(O)ccc2c2cc(O)ccc12 — CSF concentration (human CSF; concentration not given, mean): not detected
COc1cc(N)c(Cl)cc1C(=O)NC1CCN(CCCOc2ccc(F)cc2)CC1OC (stereo not drawn) — heart rate (male Hartley guinea pigs, anaesthetized; intravenous, 0.1 mg/kg group, baseline before infusion): 247 ± 0.5 beats/min
O=C(OC(C(F)(F)F)C(F)(F)F)N1CCN(Cc2cccc(Oc3ccccc3)c2)CC1 — k2 (PET blocking study; rhesus monkey, brain THA; 0.3 mg/kg, compound pretreatment, added: [18F]T-401 tracer): 0.511 min⁻¹
COc1ccnc(C(=O)NC(CO)C(=O)O)c1O (racemic) — KOC (FOCUS PEARL groundwater modelling; soil; geometric mean input): 315 mL/g
CN1CCN(c2cccc3c2CCN(C(=O)/C=C/c2c(-n4cnnn4)ccc(Cl)c2F)[C@@H]3C(=O)Nc2ccc(C(=O)O)cc2)C(=O)C1 — subjects with treatment-related adverse event (healthy human subjects; intravenous infusion, 20 mg/h, 5 days): 0%
O=C(O)[C@H]1O[C@@H](Oc2ccc3c(c2)OC[C@H](c2ccc(O)cc2)C3)[C@H](O)[C@@H](O)[C@@H]1O — CSF concentration (human CSF; concentration not given, mean): not detected
CNCc1ccc(-c2[nH]c3cc(F)cc4c3c2CCNC4=O)cc1 — anaemia incidence (patients; oral, 240 mg twice daily, all grades): 0%
Cc1cn(-c2cc(NC(=O)c3ccc(C)c(Nc4nccc(-c5cccnc5)n4)c3)cc(C(F)(F)F)c2)cn1 — peripheral volume of distribution (V2) (population PK model, bootstrap; human, both sexes, plasma; oral, dose not given): 224 L
Cl.[2H]C([2H])([2H])CC(=O)c1cnc(NC(=O)C2CC2)cc1Nc1cccc(-c2ncn(C([2H])([2H])[2H])n2)c1OC — Tmax (human, fed, multiple dose; oral, 60 mg once daily, tablet, day 14, median): 2.09 h
CNc1ccc(-c2nc3ccc(O)cc3s2)cc1 [carbon-11 labelled] — SUV (microPET/CT imaging; APP/PS1 mouse, AD model, brain; intravenous, 20 min): 0.203 ± 0.067
CC(C)NCC(O)c1ccc(NS(C)(=O)=O)cc1 (racemic) — heart rate (male Hartley guinea pigs, anaesthetized; intravenous, 10 mg/kg over 10 min, after infusion): 150 ± 0.6 beats/min
NC[C@@]1(CC(=O)O)[C@@H]2CC[C@H]3C[C@@H]2[C@@H]1C3 — unbound Cmax (humans with normal renal function, plasma; geometric mean): 324 ng/mL
Cc1cc(-c2nccc3c2ccn3CC(=O)Nc2ccc(-c3cnccn3)cn2)ccn1 — subjects with Photophobia adverse event (human; 15 mg once daily, multiple ascending dose): 11.1%
CN(C(=O)n1cnc(-c2cccnc2)c1)C1CCCCC1 — tissue concentration (Wistar rat, midbrain; oral, 10 mg/kg, 1 h, single dose): 80 ± 15.9 ng/g
N#Cc1ccc2c(c1)[C@H]1CCCN(C(=O)c3ccc4[nH]cnc4c3)[C@H]1C2 — SHBG level (human females; 80 mg, day 7): 51.4 nmol/L
C[C@@H](NC(=O)N1C(=O)[C@H](Cc2ccnc(N)c2)[C@H]1C(=O)O)C1CCCCC1 — time to steady state (UPLC-MS/MS; healthy adult Chinese volunteers, plasma; continuous intravenous infusion, 1.5 mg/kg/h, day 1 of 5-day infusion, median): 1.5 h
OC[C@H]1O[C@@H](c2ccc(Cl)c(Cc3ccc(O[C@H]4CCOC4)cc3)c2)[C@H](O)[C@@H](O)[C@@H]1O — change in haematocrit (Japanese type 1 diabetes patients, blood; 10 mg, day 28; baseline: baseline): -0.9%

Repeated from above:
COc1ccc2c(c1)CN(C(=O)CCN1CCC(Cc3ccccc3)CC1)CC[S@@+]2[O-] — diastolic blood pressure (telemetry; conscious dog; intravenous, 4 mg/kg, 1 h): 76 ± 6 mmHg
C=CC(=O)NC1CCN(c2ncc3ncnc(Nc4ccc(Oc5ccc6c(c5)ncn6C)c(C)c4)c3n2)CC1 — participants with fatigue (human, male; oral, 240 mg, treatment-emergent adverse event): 6.3%
O=c1oc2cc(O)ccc2c2cc(O)ccc12 — CSF concentration (human CSF; concentration not given, mean): not detected
COc1cc(N)c(Cl)cc1C(=O)NC1CCN(CCCOc2ccc(F)cc2)CC1OC (stereo not drawn) — heart rate (male Hartley guinea pigs, anaesthetized; intravenous, 0.1 mg/kg group, baseline before infusion): 247 ± 0.5 beats/min
O=C(OC(C(F)(F)F)C(F)(F)F)N1CCN(Cc2cccc(Oc3ccccc3)c2)CC1 — k2 (PET blocking study; rhesus monkey, brain THA; 0.3 mg/kg, compound pretreatment, added: [18F]T-401 tracer): 0.511 min⁻¹
